Measured values gathered from unrelated publications.
Protocols differ between the studies behind these lines. Several values in a cell are separate wells, animals, samples, runs or records.
Sequence of UniProt P35372 (whole entry, looked up): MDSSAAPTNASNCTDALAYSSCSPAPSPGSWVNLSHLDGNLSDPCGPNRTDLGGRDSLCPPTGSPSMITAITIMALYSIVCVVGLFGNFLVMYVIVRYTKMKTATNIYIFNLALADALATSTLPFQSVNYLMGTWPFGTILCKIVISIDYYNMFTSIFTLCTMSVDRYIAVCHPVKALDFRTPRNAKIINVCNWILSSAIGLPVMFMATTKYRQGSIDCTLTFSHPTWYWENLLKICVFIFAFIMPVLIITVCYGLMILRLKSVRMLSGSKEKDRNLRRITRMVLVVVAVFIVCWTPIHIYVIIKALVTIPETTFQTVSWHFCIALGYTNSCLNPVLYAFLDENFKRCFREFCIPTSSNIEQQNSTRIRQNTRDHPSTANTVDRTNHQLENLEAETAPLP
Sequence of UniProt Q695T7 (whole entry, looked up): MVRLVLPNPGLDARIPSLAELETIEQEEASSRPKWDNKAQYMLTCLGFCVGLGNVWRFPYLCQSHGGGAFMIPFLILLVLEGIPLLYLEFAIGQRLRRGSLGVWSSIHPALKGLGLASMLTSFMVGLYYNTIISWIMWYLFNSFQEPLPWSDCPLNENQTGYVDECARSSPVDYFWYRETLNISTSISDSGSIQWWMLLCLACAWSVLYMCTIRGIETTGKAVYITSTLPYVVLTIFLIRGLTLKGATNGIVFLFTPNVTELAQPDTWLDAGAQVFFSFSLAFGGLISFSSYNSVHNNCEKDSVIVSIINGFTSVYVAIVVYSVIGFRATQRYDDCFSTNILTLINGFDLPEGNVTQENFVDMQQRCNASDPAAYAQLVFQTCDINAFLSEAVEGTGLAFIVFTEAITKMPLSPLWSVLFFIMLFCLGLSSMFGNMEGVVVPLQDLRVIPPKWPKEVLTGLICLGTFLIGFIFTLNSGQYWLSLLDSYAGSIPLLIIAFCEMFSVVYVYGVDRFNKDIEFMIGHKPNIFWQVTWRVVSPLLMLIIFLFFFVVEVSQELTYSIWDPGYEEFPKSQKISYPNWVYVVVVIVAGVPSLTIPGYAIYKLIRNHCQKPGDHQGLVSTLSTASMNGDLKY

`CC(C)(C)n1nc(-c2ccc(Cl)cc2)c2c(N)ncnc21` has a viability of 29.1% (L929; necroptosis protection, CCK-8; 0.556 µM, together with: TNF-α-induced).
Under “body weight change”, `Cn1cc(-c2cccc(CN3CCC4(CC3)COc3c4ccc4c3CN([C@H]3CCC(=O)NC3=O)C4=O)c2)cn1` is recorded as 0.8% and -2.4% and 9% and 8.5% (Crbn I391V mouse, MC-38 tumour; 30 mg/kg, day 11, together with: anti-LAG3 antibody 10 mg/kg weekly).
With `CCCCC[C@@H](O)CC(=O)N[C@@H]1C(=O)N[C@H](CCCNC(=N)N)C(=O)N[C@@H](CO)C(=O)NCC(=O)N(C)[C@H](Cc2ccccc2)C(=O)N[C@@H](CC(C)C)C(=O)N[C@H](CCCNC(=N)N)C(=O)N[C@@H](CCC(=O)O)C(=O)N[C@H](CCC(N)=O)C(=O)N[C@H](Cc2c[nH]c3ccccc23)C(=O)N[C@@H]([C@@H](C)CC)C(=O)N[C@@H]([C@@H](C)O)C(=O)O[C@@H]1C` the viable cells was 200 CFU/mL and 100 CFU/mL (Staphylococcus aureus; USA300; 2 x MIC, 300 min).
`N=C(N)NCCCCCCN1CCC23c4c5ccc(O)c4OC2c2nc4ccccc4cc2CC3(O)C1C5` (stereo not drawn) — result for “normalised specific binding”: 94.4% and 121% and 132% (OPRM1 (Homo sapiens, UniProt P35372); competitor, radioligand binding; 10 pM).
Under “normalised transport activity”, `CCCNC(=O)COc1ccc(Br)c(C)c1` is recorded as 0.982 (SLC6A19 (Homo sapiens, UniProt Q695T7); inhibitor, FLIPR membrane potential; CHO-BC cells; 0.001 µM).
`O=[N+]([O-])c1ccc(C2=NOC3(NC(c4ccccc4)=NO3)N2c2ccccc2)cc1` (stereo not drawn) has an IC50 of over 1 mM (Plasmodium falciparum; parasite growth; SB1-A6 atovaquone-resistant; 72 h).

For quick reference, copied from above:
Under “normalised transport activity”, `CCCNC(=O)COc1ccc(Br)c(C)c1` is recorded as 0.982 (SLC6A19 (Homo sapiens, UniProt Q695T7); inhibitor, FLIPR membrane potential; CHO-BC cells; 0.001 µM).
